Measured values of several laboratories.
Each line is one published result; not all experiments were run side by side.
RPS6KA1 C-terminal kinase domain: Ribosomal protein S6 kinase alpha-1, C-terminal kinase domain (RPS6KA1, Homo sapiens, UniProt Q15418)
RPS6KA1 N-terminal kinase domain: Ribosomal protein S6 kinase alpha-1, N-terminal kinase domain (RPS6KA1, Homo sapiens, UniProt Q15418)

CNC(=O)C1CCN(c2cc(C)c(F)cc2NC(=O)c2ccc(-c3cc(O)ccc3C)c(C)c2)CC1 — remaining binding (RPS6KA1 C-terminal kinase domain; binding, competition with immobilised ligand; 1 µM): 92%
COc1cc(Nc2nc(C)cc(-c3cnn4nc(OC)ccc34)n2)cc(C(F)(F)F)c1 — remaining binding (RPS6KA1 N-terminal kinase domain; binding, competition with immobilised ligand; 1 µM): 100%
CNC1C[S+]2CC[S+]3CC[S+](C1)[Ru-4]321([N]=C=S)[n]2c3ccc(OC)cc3c3c4c(c5cc(F)c[n+]1c5c32)C(=O)NC4=O (stereo not drawn) — remaining binding (RPS6KA1 N-terminal kinase domain; KinomeScan; 0.1 µM; reference: untreated): 80%
CCN1CCN(Cc2ccc(C(=O)Nc3ccc(C)c(NCc4cnc5[nH]ccc5c4OC)c3)cc2C(F)(F)F)CC1 — remaining binding (RPS6KA1 N-terminal kinase domain; binding, competition with immobilised ligand; 1 µM): 95%
Cc1cnc2nc1Nc1cccc(c1)COC/C=C/COCc1cc(ccc1OCCN1CCOCC1)N2 — remaining binding (RPS6KA1 N-terminal kinase domain; binding, competition with immobilised ligand; 0.1 µM): 77%
C=CC(=O)N1CCc2ccc(-n3c(=O)ccc4cnc5ccc(-c6cnn(C)c6)cc5c43)cc21 — remaining binding (RPS6KA1 C-terminal kinase domain; KINOMEscan; 1 µM; reference: DMSO control): 73%
Nc1ncc2c(n1)-c1c([nH]c3ccc(C4=CCOCC4)cc13)CCC2 — remaining binding (RPS6KA1 C-terminal kinase domain; binding, competition with immobilised ligand; 1 µM): 71%
Cc1ccc(-c2c(/C=C(\C#N)C(=O)NC(C)C)n(CCCO)c3ncnc(N)c23)cc1 — remaining binding (RPS6KA1 N-terminal kinase domain; binding, competition with immobilised ligand; 1 µM): 82%
C=CC(=O)N1CCCC(n2c(=O)c3ncccc3n(Cc3ccc(Oc4ccccc4)cc3)c2=O)C1 (stereo not drawn) — remaining binding (RPS6KA1 C-terminal kinase domain; binding, competition with immobilised ligand; 1 µM): 100%
COc1cc(Nc2nccc(-c3cnn4nc(OC)ccc34)n2)cc(C(F)(F)F)c1 — remaining binding (RPS6KA1 N-terminal kinase domain; binding, competition with immobilised ligand; 1 µM): 90%
COc1c(Cl)cccc1Nc1c(-c2ccncc2C#C[C@@]2(C)CCCN2C(=O)/C=C/CN(C)C)[nH]c2c1C(=O)NCC2 — remaining binding (RPS6KA1 C-terminal kinase domain; binding, competition with immobilised ligand; 3 µM): 51%
CC(C)=CC1OC(C)(C)C2C=C3C(=O)C(Cl)=CC(O)C3C3C(O)C4OC4C(=O)C132 (stereo not drawn) — remaining binding (RPS6KA1 C-terminal kinase domain; cell-free assay, competition with immobilised ligand; 10 µM): 77%

Excerpt of the above:
C=CC(=O)N1CCCC(n2c(=O)c3ncccc3n(Cc3ccc(Oc4ccccc4)cc3)c2=O)C1 (stereo not drawn) — remaining binding (RPS6KA1 C-terminal kinase domain; binding, competition with immobilised ligand; 1 µM): 100%
